Measured values of several laboratories.
Numbered parts are unrelated; each lists some results of a single study. Several values in a cell are separate wells, animals, samples, runs or records.

Set 1
Target: Sal-like protein 4, full length isoform B (SALL4, Homo sapiens, UniProt Q9UJQ4-2, residues 1-616)
Technique: universal PBM
Molecule type: double-stranded DNA, one strand shown
Matrix: in vitro
Tested at: not given
Setting: 8-mer, flanks averaged, mean of replicates
Reading: higher = stronger binding
Measurement: E-score
AGTCATGA: 0.0981
CACCATAG: -0.095
GACATCAA: 0.122
AAGCCTCC: -0.108
GTTTACAA: 0.227
GCCGGATA: -0.00574
GAGTAAGC: -0.155
TAAAAAAA: 0.32

Set 2
Target: Replicase polyprotein 1ab, nsp13 helicase (rep, Severe acute respiratory syndrome coronavirus 2, UniProt P0DTD1)
Action: inhibitor
Tested at: 20 µM
Measurement: inhibition
N#Cc1ccc(N2N=C3c4ccc(C(=O)O)cc4CC[C@@H]3[C@@H]2C2CCCC2)cc1Cl: 14.2%
C[C@@]1(O)[C@H](O)[C@@H](CO)O[C@H]1n1ccc(N)nc1=O: 5.43%
CC(=O)[C@H]1CC[C@H]2[C@@H]3CC[C@H]4C[C@](C)(O)CC[C@]4(C)[C@H]3CC[C@]12C: -1.94%
CCC(=O)O[C@@](Cc1ccccc1)(c1ccccc1)[C@@H](C)CN(C)C: 1.12%
CN1CCCCC1CCN1c2ccccc2Sc2ccc([S+](C)[O-])cc21 (centres unmarked): 4.63%
CC(C)(C)Cn1c(N)nc2ccc(-c3[nH]c(C(C)(C)C)nc3-c3ccc(F)cc3)nc21: 2.89%
COc1cccc2c1C(=O)c1c(O)c3c(c(O)c1C2=O)C[C@@](O)(C(=O)CO)C[C@@H]3O[C@H]1C[C@H](N)[C@@H](O)[C@H](C)O1: 97.5%
Cc1ncc(CSSCc2cnc(C)c(O)c2CO)c(CO)c1O: 1.6%
CC(=O)N[C@@H](CSSC[C@H](NC(C)=O)C(=O)O)C(=O)O: 1.9%
COc1cc2c(cc1OC)C(=O)C(CC1CCN(Cc3ccccc3)CC1)C2 (centres unmarked): 2.34%
O=C(c1cncc(Br)c1)N1CCC(N2CCCC2)CC1: 3.93%
CC(=O)N[C@H](Cc1ccc2ccccc2c1)C(=O)N[C@H](Cc1ccc(Cl)cc1)C(=O)N[C@H](Cc1cccnc1)C(=O)N[C@@H](CO)C(=O)N[C@@H](Cc1ccc(NC(=O)[C@@H]2CC(=O)NC(=O)N2)cc1)C(=O)N[C@H](Cc1ccc(NC(N)=O)cc1)C(=O)N[C@@H](CC(C)C)C(=O)N[C@@H](CCCCNC(C)C)C(=O)N1CCC[C@H]1C(=O)N[C@H](C)C(N)=O: 51.7%
CCCCCCOc1cc2c(cc1N(C)c1ncc(C(=O)O)cn1)C(C)(C)CCC2(C)C: 2.78%
CCC[S+]([O-])c1ccc2[nH]c(NC(=O)OC)nc2c1 (centres unmarked): 3.51%
Nc1nc(N)nc(-c2cc(Cl)ccc2Cl)n1: 4.98%
O=C(Cn1ccnc1[N+](=O)[O-])NCc1ccccc1: 8.38%
Cn1cnc2c(NCc3ccccc3)nc(NCCO)nc21: 3.69%
O=C(O)CCc1ccc(NCc2cccc(Oc3ccccc3)c2)cc1: 2.11%
Cc1ccc(-n2nc(C(C)(C)C)cc2NC(=O)NCc2cc(F)ccc2Oc2ccc3c(cnn3CCO)c2)cc1: 11.4%
CCOc1cc2ncc(C#N)c(Nc3ccc(F)c(Cl)c3)c2cc1NC(=O)/C=C/CN(C)C: 6.8%
COc1ccc2c(Oc3ccc(NC(=O)c4c(C)n(CC(C)(C)O)n(-c5ccccc5)c4=O)nc3)ccnc2c1: 0.85%
O=C(O)C(O)[C@H](O)[C@@H](O)[C@H](O)[C@H](O)CO (some centres unmarked): 0.64%
NC(=O)Cc1cccc(C(=O)c2ccccc2)c1N: 4.73%
Oc1ccccc1: -1.02%
COc1ccc(C(=O)c2ccc(C)cc2)c(O)c1: 6.6%

Set 3
Cell line: HEK-293T/ACE2
Tested at: concentration not given
Time: 16 (unit not given)
Baseline: vehicle
Measurement: viability
CO[C@H]1/C=C/O[C@@]2(C)Oc3c(C)c(O)c4c(c3C2=O)C2=NC3(CCN(CC(C)C)CC3)NC2=C(NC(=O)/C(C)=C\C=C\[C@H](C)[C@H](O)[C@@H](C)[C@@H](O)[C@@H](C)[C@H](OC(C)=O)[C@@H]1C)C4=O: 99.2%
N=C(N)N/N=C/c1c(Cl)cccc1Cl: 101%
CCCCCCOC(=O)NC(=N)c1ccc(NCc2nc3cc(C(=O)N(CCC(=O)OCC)c4ccccn4)ccc3n2C)cc1: 95%
Cc1ccc(Nc2nccc(N(C)c3ccc4c(C)n(C)nc4c3)n2)cc1S(N)(=O)=O: 88.2%
CCCC(=O)O[C@]1(C(=O)CO)CC[C@H]2[C@@H]3CCC4=CC(=O)CC[C@]4(C)[C@H]3[C@@H](O)C[C@@]21C: 106%

Set 4
Target: RING finger protein unkempt homolog, zinc fingers 1-6, GST-SBP tag (UNK, Homo sapiens, UniProt Q9C0B0, residues 30-357)
Sequence of UniProt Q9C0B0 (30-357, looked up): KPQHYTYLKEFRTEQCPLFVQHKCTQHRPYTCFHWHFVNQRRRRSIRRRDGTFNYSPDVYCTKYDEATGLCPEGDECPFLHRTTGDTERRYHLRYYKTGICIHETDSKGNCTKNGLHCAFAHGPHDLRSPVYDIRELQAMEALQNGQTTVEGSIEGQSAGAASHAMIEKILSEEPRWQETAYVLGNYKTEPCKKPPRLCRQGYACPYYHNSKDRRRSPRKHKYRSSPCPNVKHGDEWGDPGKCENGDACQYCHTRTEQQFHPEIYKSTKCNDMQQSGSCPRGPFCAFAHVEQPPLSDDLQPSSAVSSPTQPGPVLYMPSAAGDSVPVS
Technique: RNA Bind-n-Seq
Molecule type: RNA
Matrix: in vitro
Tested at: not given
Setting: RNA with constant flanks, human-mouse chimeric sites, ends assumed
Baseline: input RNA pool
Reading: higher = stronger binding
Measurement: bound/input enrichment
All sequences stand within: GGGAGUUCUACAGUCCGACGAUC … CAACAGAGGAUUGAGCAUCA
UUUGUAUUUAUGCUAAGCACACGUGCUGGUGGUCUUGGCAUCAAUCUUGCAACUGCUGAUGUAGUCAUUUUAUAUGACUCAGAUUGGAAUCCCCAAGUUGAUCUUCAGGCUAUGGACCGU: 0.142 ratio
UUUCUACUGCAGCAAACGAUGCUAAGAAUUAAGGAUCCUAAGAAGUCCCUGGAUUUUUAUACUAGAGUUCUUGGACUGACGCUAAUCCAGAAGCUUGACUUCCCUGCUAUGAAGUUCUCG: 0.0851 ratio
UUAAUCCCCUUCGUUGCUCCCCCACUUCUCAUGGUAAUAACAAAGUCUUAUAUCCCCGUCCUAGCUUUCACUCAGAUGGCUUAUGGAGCCGGUUUCCUAGCUUUCUUGGGUGGGAUCAGA: 0.404 ratio
AGUGUGCAGGAAUUCAUGACCUUUACAAGUCAACUGAUUGUGGAGCGCUCGGGGAAAGGCACUAGAGCUUCUGUCAAAGAACAAGAGUAUCUUUGCCAUGUCUACGUCCGGAGCGACAGU: 0.112 ratio
GAGCGUCUUGCCCGCACUGGGAUCAUCGUGACCACUAGUGAGGCUGUUCUGCUUCAGCUGGUGGCUGACAAAGACCACCCGAAGUUCAAGGAAAUUCAGAACCUAAUUAAGGCGAGUGCC: 0.108 ratio
CUGGCACUGUAUCAGAUAUAUUAAUUUUUUAAUGUAGAUGUAAUUUUAAAAAUGAAUGGCUACUUUACACGUUUAACUAGGGUUUUACUAUAUAUGUGUACAUAUGUAUAUGUAUUUAUA: 5.79 ratio
GUUCGGCUCUGGGAUCAUGCUACUAUGACAGAAGUGAAAUCUCUAAAUUUUAAUAUGUCUGUUAGCAGCAUGGAGUAUAUUCCUGAAGGAGAGAUUUUGGUUAUUACUUAUGGACGAUCU: 0.284 ratio

Set 5
Organism: SARS-CoV-2
Observed: cytopathic effect
Cells: Vero E6
Tested at: 10 µM
Measurement: inhibition
COc1ccc2[nH]c([S+]([O-])Cc3ncc(C)c(OC)c3C)nc2c1 (centres unmarked): 1.3% and -5.2%
CC1=C(/C=C/C(C)=C/C=C/C(C)=C/C(=O)O)C(C)(C)CCC1: 1%
O=c1c2ccccc2[se]n1-c1ccccc1: -2.9%

Set 6
Target: Histone acetyltransferase KAT6A, winged helix 2, GST fusion (KAT6A, Homo sapiens, UniProt Q92794, residues 85-181)
Technique: protein binding microarray
Molecule type: double-stranded DNA, one strand shown
Matrix: in vitro
Tested at: not given
Setting: 8-mer, flanks averaged, mean of 2 arrays, mostly near background
Baseline: not given
Reading: higher = stronger binding
Measurement: E-score
Construct (chain): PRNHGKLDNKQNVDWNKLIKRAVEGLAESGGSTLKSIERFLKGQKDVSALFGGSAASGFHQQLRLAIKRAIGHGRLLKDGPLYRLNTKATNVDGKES
CACGCCTA: -0.162
ACGGCGAC: 0.115
CGCACCCC: -0.00481
GCTATGCA: 0.138
GCGAGGTA: 0.105
CATCACTA: -0.14
CTTCCCCC: -0.154
AAAGTTCC: -0.231
